Measurements from different studies.
Compare with care: the assays were run in different laboratories. Numbers after ± are the reported error.

SMILES = Nc1ncnc2c1ncn2[C@@H]1O[C@H](CO)[C@@H](O)[C@H]1F; cell line = MOLT-4; technique = sulforhodamine B; time = 11 days; notes = galactose medium; CC50 = 111 µM
SMILES = O=[N+]([O-])/C=C/c1ccc(Br)o1; cell line = KB; effect on = cell viability; technique = alamarBlue; time = 72 h; notes = 10% FCS; CC50 = 6 ± 2.6 µM
SMILES = COc1ccc(-n2c(SCc3cccnc3)nnc2[C@H](Cc2ccccc2)NC(=O)Cc2c(C)[nH]c3ccccc23)cc1; cell line = MT-4; CC50 = 24.2 ± 2.28 µM
SMILES = COc1ccc(-c2cc(=O)c3c(O)c(OC)c(O)c(OC)c3o2)cc1O; cell line = MT2; effect on = cell growth or viability; technique = ATP luminescence; time = 48 h; CC50 = ~50 µM
SMILES = OC[C@H]1O[C@@H](n2cnc3c(O)ncnc32)[C@H](F)[C@@H]1O; cell line = MOLT-4; effect on = cell growth or viability; technique = SRB; time = 11 days; CC50 = > 250 µM
SMILES = COc1ccc(-n2c(SCC#N)nnc2[C@H](Cc2ccccc2)NC(=O)Cc2c(C)[nH]c3ccccc23)cc1; cell line = MT-4; CC50 = 95.8 ± 69.6 µM
SMILES = CCN(Cc1cccc(S(=O)(=O)O)c1)c1ccc(C(=C2C=CC(=[N+](CC)Cc3cccc(S(=O)(=O)[O-])c3)C=C2)c2ccccc2)cc1; cell line = MT2; time = 3 days; CC50 = 190 ± 14.4 µM
SMILES = CCOC(=O)c1cn(CC(c2c[nH]c3cc(Br)ccc23)c2c[nH]c3cc(Br)ccc23)c(C)c1C(=O)OC; cell line = DH82; effect on = cell growth or viability; technique = MTS; time = 72 h; CC50 = 11.1 µM
SMILES = Cc1nc([C@@H](NC(=O)c2ccc(-c3ccc(Cl)cc3)[nH]2)[C@@H]2CCCCN2)sc1CO; cell line = U87/CD4/CCR5; effect on = cell growth or viability; technique = XTT; CC50 = ~24 µM
SMILES = COc1ccc(-n2c(SCc3ccc(S(N)(=O)=O)cc3)nnc2[C@H](Cc2ccccc2)NC(=O)Cc2c(C)[nH]c3ccccc23)cc1; cell line = MT-4; CC50 = > 187 µM
SMILES = CCCCN1C(=O)c2ccc3c4c(ccc(c24)C1=O)C(=O)N(CCNc1c2ccc(Cl)cc2nc2ccc(OC)cc12)C3=O; cell line = NIH3T3; effect on = cell growth or viability; technique = MTT; CC50 = > 0.02 µM
SMILES = COc1ccc(S(=O)(=O)O)cc1N=Nc1c(S(=O)(=O)O)cc2cc(NCc3nc(CNc4cc(C)c(N=Nc5cc(S(=O)(=O)O)cc6cc(S(=O)(=O)O)cc(O)c56)cc4OC)nc(Nc4ccccc4)n3)ccc2c1O; cell line = U87.CD4.R5.X4; time = 3 days; CC50 = 515 ± 6 µM
SMILES = O=c1ccn([C@@H]2O[C@H](CO)[C@@H](O)[C@H]2F)c(=O)[nH]1; cell line = MOLT-4; technique = sulforhodamine B; time = 11 days; notes = galactose medium; CC50 = > 250 µM
SMILES = O=[N+]([O-])/C=C/c1ccco1; cell line = KB; effect on = cell viability; technique = alamarBlue; time = 72 h; notes = 10% FCS; CC50 = 11.6 ± 3.6 µM
SMILES = C=CCSc1nnc([C@H](Cc2ccccc2)NC(=O)Cc2c(C)[nH]c3ccccc23)n1-c1ccc(OC)cc1; cell line = MT-4; CC50 = 24.7 ± 0.75 µM
SMILES = Nc1ccn([C@@H]2O[C@H](CO)[C@@H](O)[C@H]2F)c(=O)n1; cell line = MOLT-4; technique = sulforhodamine B; time = 11 days; notes = galactose medium; CC50 = 4.5 µM

A few entries again:
SMILES = CCOC(=O)c1cn(CC(c2c[nH]c3cc(Br)ccc23)c2c[nH]c3cc(Br)ccc23)c(C)c1C(=O)OC; cell line = DH82; effect on = cell growth or viability; technique = MTS; time = 72 h; CC50 = 11.1 µM
SMILES = Cc1nc([C@@H](NC(=O)c2ccc(-c3ccc(Cl)cc3)[nH]2)[C@@H]2CCCCN2)sc1CO; cell line = U87/CD4/CCR5; effect on = cell growth or viability; technique = XTT; CC50 = ~24 µM
